Experimental data gathered from unrelated publications.
Numbered parts are unrelated; each lists some results of a single study.

Sample 1 — technique: protein-binding microarray; form: double-stranded DNA, one strand shown; sample: in vitro; tested at: 0.8 µM; setting: whole 60-bp probe, no competitor; direction: higher = stronger binding; all sequences stand within: … GTCTTGATTCGCTTGACGCTGCTG
Target: Centromere-binding protein 1, full length, N-terminal tag (CBF1, Saccharomyces cerevisiae, UniProt P17106, residues 1-351)
Sequence of UniProt P17106 (whole entry, looked up): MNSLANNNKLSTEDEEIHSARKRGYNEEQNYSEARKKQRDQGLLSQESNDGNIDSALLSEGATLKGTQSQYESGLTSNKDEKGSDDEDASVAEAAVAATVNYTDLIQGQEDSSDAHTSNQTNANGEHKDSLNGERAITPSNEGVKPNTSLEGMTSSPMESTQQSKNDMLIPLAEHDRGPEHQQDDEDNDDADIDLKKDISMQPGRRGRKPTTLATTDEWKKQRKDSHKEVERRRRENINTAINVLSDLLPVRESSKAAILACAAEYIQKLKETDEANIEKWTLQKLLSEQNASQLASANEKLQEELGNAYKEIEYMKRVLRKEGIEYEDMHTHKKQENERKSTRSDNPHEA
Strand | fluorescence intensity
CCTAACTACTATAGACACATAAAATAGCTTCGTACA | 532 a.u.
CTAATTGAACCTAAGAGCGTGATATTTTTACTCTTC | 633 a.u.
CCTAACTACTATAACCTGACTCCATAGCTTCGTACA | 562 a.u.
CTATTTTACGCTACGCACGTCATCGATGTATACTTC | 517 a.u.
GAAGGTTTGCTCTACGACGTGGTTGGATTATATTAG | 501 a.u.
CTAATAGACACCACAAACGTGCGCAAGAAACCGTTC | 595 a.u.
GAAAGCAATACAGGTGGTGGTTCAAGCAAAACATAG | 568 a.u.
GAACTGATAAAACGTTTAATCACGTTAACAAGTTAG | 1560 a.u.
CTAGTCCCACTTTGCCACAGGAGACGTGGCCTGTTC | 532 a.u.
CTAACACCCATTCATCACGTGTAATTGGACATCTTC | 5870 a.u.
GAATTACATTGGCGAAAGGTGATGGTGTAAAGTTAG | 538 a.u.
GAAATAATAAATACAAACGTGGGAAGTCGGAGATAG | 630 a.u.
GAATACTTTATATGACTGATGATGATGTAACAATAG | 592 a.u.
CTACTCAAGGTGAGTCACGATGCAGAACTGGAATTC | 809 a.u.
CTAAAAACAGCAGAGCACGTCCTATATATATATTTC | 602 a.u.
GAAATGCTTTTGGGTTATCACGTTCAACAAGGATAG | 995 a.u.
CTAAATATTCTGCATCGCGTGGAACCCATGGAATTC | 530 a.u.
GAAAAAAGCAAATCACATGTGCACATACGTCCATAG | 4360 a.u.
CTAATTTTCACGCAGAACGTGCCTAAGAAAAAATTC | 766 a.u.
CTAACAAGCTATTAATATGTGACCCATACATTTTTC | 514 a.u.

Sample 2 — technique: protein-binding microarray; form: double-stranded DNA, one strand shown; sample: in vitro; tested at: not given; direction: higher = stronger binding
Target: Myc proto-oncogene protein, bHLH-zipper, MAX partner unstated (MYC, Homo sapiens, UniProt P01106, residues 368-449)
Sequence of UniProt P01106 (368-449, looked up): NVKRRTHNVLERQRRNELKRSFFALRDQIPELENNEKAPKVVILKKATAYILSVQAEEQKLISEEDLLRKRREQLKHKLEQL
Setting: k-mer, scored over probes, only values ≥0.25
Strand | E-score
ATGCCGCC | 0.274
GTGGCCAA | 0.286
CTCGACAC | 0.272
CACGATGG | 0.356
TGCGCGCA | 0.296
CATGTAGG | 0.253
CACGCCGA | 0.369
CGTGTATC | 0.326
ACGTGTAT | 0.423
CATGGGTA | 0.312
CACACGTG | 0.495
CAACCACG | 0.41
CGCATGAC | 0.398
TAGCACGA | 0.299
CATGGTAG | 0.379
CGTGGGTC | 0.306
AGGTCACG | 0.296
CACCCCTC | 0.273
GCGTGGCA | 0.442
ATGCGGCG | 0.299
CCGTGTGC | 0.312
GCACACGA | 0.342
CCACCCCC | 0.28
ATCGTGGA | 0.264
CATGCGGG | 0.451

Sample 3 — technique: protein binding microarray; form: double-stranded DNA, one strand shown; sample: in vitro; tested at: not given; baseline: not given; direction: higher = stronger binding
Target: Histone acetyltransferase KAT6A, both winged helices, GST fusion (KAT6A, Homo sapiens, UniProt Q92794, residues 1-181)
Setting: 8-mer, flanks averaged, mean of 2 arrays, mostly near background
Target sequence (chain): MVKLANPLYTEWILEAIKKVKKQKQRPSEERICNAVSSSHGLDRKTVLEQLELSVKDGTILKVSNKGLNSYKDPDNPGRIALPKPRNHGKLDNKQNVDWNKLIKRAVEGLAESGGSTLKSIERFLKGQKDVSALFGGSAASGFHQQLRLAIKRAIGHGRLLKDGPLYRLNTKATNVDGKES
Strand | E-score
CACGAAAG | -0.0339
ATAATGTG | -0.0736
AGATAATA | -0.0886
CAACTTGG | -0.109
TCCATGGA | 0.0464
GGGATTGA | -0.0208
CTGACCGA | 0.101
CCCTGCAG | -0.00683
GCGCGTCA | 0.316
GAGGTTAC | 0.0128
ATACGCAA | 0.0712
AGTGCGAA | -0.014
CCCCACCA | -0.177
ATATCTGC | -0.0131
AGACCTGG | -0.0457
GACCGAGC | 0.0938
AATTTTTC | -0.055
CCCTCAAG | -0.246
ACACATTA | -0.133
AAGCACTG | -0.181
GACCCGTA | 0.178
AAAGGAAT | -0.113
CCCTGGAA | -0.118
ACGCCGGC | 0.363
AGCGAATA | -0.0103

Sample 4 — technique: RNA Bind-n-Seq; form: RNA; sample: in vitro; tested at: 100 nM; baseline: input RNA pool; direction: higher = stronger binding
Target: RING finger protein unkempt homolog, zinc fingers 1-6, SBP tag (UNK, Homo sapiens, UniProt Q9C0B0, residues 30-357)
Sequence of UniProt Q9C0B0 (30-357, looked up): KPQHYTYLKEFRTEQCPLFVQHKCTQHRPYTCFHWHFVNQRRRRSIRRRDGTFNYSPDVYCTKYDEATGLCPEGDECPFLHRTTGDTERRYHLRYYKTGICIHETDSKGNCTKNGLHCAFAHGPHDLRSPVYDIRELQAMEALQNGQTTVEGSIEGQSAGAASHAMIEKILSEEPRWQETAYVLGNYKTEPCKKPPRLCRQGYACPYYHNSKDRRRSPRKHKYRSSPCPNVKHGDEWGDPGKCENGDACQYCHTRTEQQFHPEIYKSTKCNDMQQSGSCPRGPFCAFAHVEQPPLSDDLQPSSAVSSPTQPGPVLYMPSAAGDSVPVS
Setting: RNA with constant flanks, vertebrate orthologous sites, ends assumed
All sequences stand within: GGGAGUUCUACAGUCCGACGAUC … CAACAGAGGAUUGAGCAUCA
Strand | bound/input enrichment
AGAACCUAAACUUAUAGCAAAAGAGCCAAGCAGUAGUUUUUUUGUAAAUGGAAAAAUAAUUAGAUCCAGACUUUGUUUCCUUCAAUUUUAAAAAUAAAAAAUACCUCAGUGCUAUGUUUU | 0.686 ratio
CAGGAGCUACAUAGACUGUUUGUGUUUUGGGAAAAUGAGCUUUGCUUUUUGAUAUUUAAAUAGGAUACUUUUAUAUGAUGGGUGCUCUGAGUGUGAAUGCAGCAAGCUCCAUUUCAGAGA | 1.31 ratio
GCACAUGCCGCUAUCACCAAAAGCAAAUUGCCAUUUUUCAAAUUUCAUCCAGAGCCGUUUUAGUGUUUUCCUAUUCCCUGCCCUUCCCAUUACUUUCAGUGAUGAAAGUUCUCCUCUGAC | 2.22 ratio
ACAUGUCUAUUGUGGCAUAUAGUCAACAUGGAAGUAGACCAGCUCUGCUGAUUUGAAAUUUAGAUUUUUUUAAUUAUGUACUGGGGACAGGUUUUUGUCGCUUUACAUUGCUUCCUAGUU | 4.21 ratio
AAGAACUCUUGCAGUCUUACAUGUUAUAAAAAAUAUGUAUAUCUGAAUUGUAAGAGUUGUUAGCACAGGUUUUUUUUUUUUUUUUAAGCACUUGUUUUGGGUACAAGGCAUGUCUGAAAU | 0.675 ratio
UGUCCUUUCUUACUGUCCCCAGCCGGGGCUGGGGACCGGUGUGUCACUGAGGACCUGCAUUAGAAACAUUUUUUAAAUUGUUGUACAGGAAGAGAUGUGUCUAAAACAGCAUCUCAAAGC | 1.23 ratio
UGUUGUUAAGCACUGUGUUCCAGACCGUGUCUGACUUUAGUGUAACCUAGGAGAUUUUUAUAGUUUUAUUUUAAUGAAAUCCCGCUUGACGCAGAGCAGCGGGGAGAGCAGUGUCCUCUA | 2.65 ratio
UGUCUCCGUGGAGCCUGGGAGCAUCCGUGCUGCCGGGGGCUCUUACUUUGUUUUCUUUUCCUCGGGGUGGGGGUGGGUCGUGGUGCCCACCGUGCUGAGGCGUCAGCGUGGGUGGUGGGU | 0.143 ratio
GUUAGGUCAUGACCCUUACAGAUUAGGUCAUGACCCUUAUAGGUUAGGACAGGACCCCUAUAGGUUAGGCCAUGAUCCCUAUAGGCUAGCUCCUGACCCCUAUAGAAUGUCACCCAGACC | 0.497 ratio
AAUGGUGGUUGUAUAUUCUCAAUUUGAUUUAUAUAAUGAAAAGAUUAAUUGCUUUGAAUCUGGGGACUGAAGUGGAGCAGCACAGGAUGGAUGAAUUGUGCCCUCCUGUGGGUUUUUUUU | 0.259 ratio
GCCCUAAACUAGCUUUGAACUGUAGUGCUGUUGAGCUGGUUCAUAAGUUGGUAUUGGGAAUUUAGACCCUUGAUUUCUCUACUGCUGCUGACCAGAGAGAUAGCGAUUACAACCAGGAAC | 0.45 ratio

Sample 5 — technique: RNAcompete; form: RNA; sample: in vitro; tested at: 20 nM; setting: 7-mer, probes averaged, single round; baseline: mean of 7-mers; direction: higher = stronger binding
Target: PABPC1L2, full length, GST fusion (mouse, UniProt A0ABA7IW68)
Residues (chain): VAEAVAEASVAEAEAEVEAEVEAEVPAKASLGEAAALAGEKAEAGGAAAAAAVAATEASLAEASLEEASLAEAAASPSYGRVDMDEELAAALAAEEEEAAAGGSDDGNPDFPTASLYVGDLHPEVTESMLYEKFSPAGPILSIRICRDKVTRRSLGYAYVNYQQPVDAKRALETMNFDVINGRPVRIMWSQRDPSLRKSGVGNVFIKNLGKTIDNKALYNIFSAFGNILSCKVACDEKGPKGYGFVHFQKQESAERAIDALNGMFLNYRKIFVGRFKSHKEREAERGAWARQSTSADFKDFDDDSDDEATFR
Strand | 7-mer Z-score
GUUAGAG | -0.0645
UAUUCCU | -0.338
UAUGUCG | -0.275
CUUCGAC | -0.32
UAUUUGC | -0.403
GUUGAAA | 0.336
UGCCAUG | -0.124
GUGCGAA | 0.146
ACUAUGA | -0.0681
CUCGCAA | -0.264
AUGGUCA | 0.037
GCACCCC | -0.374
UCAGACU | -0.217
CGAUCGA | -0.106
UUUGGGC | -0.251
AGCGAUA | 0.117
AGCCGAC | -0.186

Sample 6 — technique: RNA Bind-n-Seq; form: RNA; sample: in vitro; tested at: 1 µM; setting: whole 134-nt RNA, ends assumed; with: 150 mM KCl; baseline: input library; direction: higher = stronger binding
Target: Ras GTPase-activating protein-binding protein 1, RRM domain (G3BP1, Homo sapiens, UniProt Q13283)
Sequence of UniProt Q13283 (whole entry, looked up): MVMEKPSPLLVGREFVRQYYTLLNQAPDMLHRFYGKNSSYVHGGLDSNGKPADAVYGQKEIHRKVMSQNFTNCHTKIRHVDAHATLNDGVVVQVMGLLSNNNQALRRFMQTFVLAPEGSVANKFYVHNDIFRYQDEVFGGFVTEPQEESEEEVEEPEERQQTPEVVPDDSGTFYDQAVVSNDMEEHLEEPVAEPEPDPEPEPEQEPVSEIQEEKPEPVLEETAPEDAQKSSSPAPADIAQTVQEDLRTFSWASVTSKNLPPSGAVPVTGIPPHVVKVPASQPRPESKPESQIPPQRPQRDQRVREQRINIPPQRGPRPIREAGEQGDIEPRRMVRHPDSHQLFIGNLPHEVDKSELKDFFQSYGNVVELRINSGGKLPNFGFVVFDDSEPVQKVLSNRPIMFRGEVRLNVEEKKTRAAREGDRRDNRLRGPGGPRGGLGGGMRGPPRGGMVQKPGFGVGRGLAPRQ
All sequences stand within: GGGAGUUCUACAGUCCGACGAUC … UGGAAUUCUCGGGUGUCAAGG
Strand | log2 enrichment
UGGCCCUGGUGGCAUGCGGGGAGGAAGCGGUGGCCUCAUGGAUCGUGGUGGUCCCGGUGGAAUGUUCAGAGGUGGCCGUGGUGGAGACAG | 0.77
CUGUGCUACACAUCGUAUGUACCGAAUCGGGUUUUUUUGGGUUUUUUUGGGUUUUUUUGGGGAAAGUAUUAUGUUACGCCGUUCGGAUCU | -0.0816
CCUGUGCUACACAUCGUAUGUACCGAAUCGGUUUUUUUGGGUUUUUUUGGUUUUUUUGGGAAAGUAUUAUGUUACGCCGUUCGGAUCUGC | -0.173
ACCAUGCAGGUGGGCAUCUUUGGGAAGUGGGGCAAGGGGGGGAUAGGGAGGGGAAAAACACUUUGGGAACAGGUGGUCCCAGGUCGUUUC | -0.373
UGGGAGGUGGAUUAUGUUUAUUUUUUUAGCUCAUUUCCAGGGGUGGGAAUUUUUUUUUAAUAUGUGUCAUGAAUAAAGUUGUUUUUGAAA | 1.45
CAGAGACAACACGCACCCACACAGACACAGAGGGAAGGGGUUGGGAUGGGGACAGGGUGCACAGCAGGGCGGGGUAGGACCCCAGCCCCU | -0.0841
GUCCUGUGCUACACAUCGUAUGUACCGAAUCGGUUUUUUGGUUUUUUGGGUUUUUUGGAAAGUAUUAUGUUACGCCGUUCGGAUCUGCAC | -0.233
GUCCUGUGCUACACAUCGUAUGUACCGAAUCGGGUUUGGGUUUUUUUGGGAAAAAGGGAAAGUAUUAUGUUACGCCGUUCGGAUCUGCAC | 0.209
CCUGUGCUACACAUCGUAUGUACCGAAUCGGGGUGGGGUUUUUUUGGGGAAAAAAAGGGGAAAGUAUUAUGUUACGCCGUUCGGAUCUGC | 0.384
ACCAUGCAGGUGGGCAUCUUUGGGAAGUGGGGCAAGGGGGGGAUAGGGAGGGGGGUAACACUUUGGGAACAGGAAAUCCCAGGUCGUUUC | -0.379
UUAUGGAGUUUGGCCCUGAGGACAUGCUGCUGGGCAUGGAUGAGGCUGAAGAUGAUGAGGACCUGGAGGCUGAGCUGCUGGCUCUCACAG | -0.366
UCCUCAAGUCCUGUGCUACACAUCGUAUGUACCGAAUCGGCGGGCGGGGCGGAAAGUAUUAUGUUACGCCGUUCGGAUCUGCACUUCCAG | -0.321
CAAGUCCUGUGCUACACAUCGUAUGUACCGAAUCGGGAAAGGGAAAGGGAAAGGGAAAGUAUUAUGUUACGCCGUUCGGAUCUGCACUUC | 0.589
AGUCCUGUGCUACACAUCGUAUGUACCGAAUCGGGGAAAAGGAAAAGGGGAAAAGGGGAAAGUAUUAUGUUACGCCGUUCGGAUCUGCAC | 0.228

Repeated from above (sample 5):
Strand | 7-mer Z-score
GUUGAAA | 0.336
UCAGACU | -0.217
CUUCGAC | -0.32
AGCCGAC | -0.186
UAUUCCU | -0.338
GCACCCC | -0.374
GUUAGAG | -0.0645
UUUGGGC | -0.251
CGAUCGA | -0.106
GUGCGAA | 0.146
UGCCAUG | -0.124
ACUAUGA | -0.0681
